Measured values collected from several papers.
“And” joins repeats or separate records; there may be more than shown. ± marks the error that the study gave. Positions of bridges follow the written chain, without caps; N, C: chain ends. No end group written: not given here.
Streptavidin E68V/S69T/V71R: Streptavidin (Streptomyces avidinii, UniProt P22629, E68V/S69T/V71R)
Sequence of UniProt P22629 (whole entry, unmodified, looked up): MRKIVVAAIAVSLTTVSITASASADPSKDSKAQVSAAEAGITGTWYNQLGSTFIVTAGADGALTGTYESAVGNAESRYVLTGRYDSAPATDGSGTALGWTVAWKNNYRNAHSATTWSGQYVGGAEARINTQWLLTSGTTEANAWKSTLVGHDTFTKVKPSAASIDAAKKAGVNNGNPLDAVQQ
Sequence of UniProt Q9QXD6 (whole entry, unmodified, looked up): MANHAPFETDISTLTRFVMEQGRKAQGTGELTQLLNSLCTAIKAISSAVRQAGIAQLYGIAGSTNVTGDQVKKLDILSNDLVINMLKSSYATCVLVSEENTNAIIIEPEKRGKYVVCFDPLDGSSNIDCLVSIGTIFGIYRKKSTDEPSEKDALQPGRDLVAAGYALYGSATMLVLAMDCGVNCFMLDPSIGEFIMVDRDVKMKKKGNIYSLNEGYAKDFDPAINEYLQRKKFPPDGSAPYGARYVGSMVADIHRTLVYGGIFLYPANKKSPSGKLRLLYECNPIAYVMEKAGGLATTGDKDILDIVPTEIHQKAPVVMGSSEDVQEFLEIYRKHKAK
Sequence of UniProt Q96RI1 (whole entry, looked up): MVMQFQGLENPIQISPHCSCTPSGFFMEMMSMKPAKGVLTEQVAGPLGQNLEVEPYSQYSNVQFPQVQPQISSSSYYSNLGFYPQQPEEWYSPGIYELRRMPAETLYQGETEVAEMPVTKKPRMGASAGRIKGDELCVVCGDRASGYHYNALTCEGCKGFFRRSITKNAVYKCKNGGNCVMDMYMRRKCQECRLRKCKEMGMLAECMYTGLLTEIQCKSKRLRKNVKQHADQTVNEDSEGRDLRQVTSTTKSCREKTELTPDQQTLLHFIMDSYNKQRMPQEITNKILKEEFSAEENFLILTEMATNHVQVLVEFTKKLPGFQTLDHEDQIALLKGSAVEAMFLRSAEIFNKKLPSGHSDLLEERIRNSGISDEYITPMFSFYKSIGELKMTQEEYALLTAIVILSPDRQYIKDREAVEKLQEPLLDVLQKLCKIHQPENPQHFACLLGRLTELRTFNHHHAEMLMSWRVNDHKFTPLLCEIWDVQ

For `NQVANAQ`, the Kd was > 120000 nM (Escherichia coli 23S rRNA H69, modified; binding, ESI-MS titration; peptide, 50% isopropanol, 150 mM ammonium acetate; with: RNA 2.7 µM).
The Kd of `PPAIIIT` is reported as ~300 nM (Protein phosphatase 3 catalytic subunit alpha, with calcineurin B (PPP3CA, Homo sapiens, UniProt Q08209); binding, stopped-flow FRET; peptide; 36 °C, with: AKAP79(333-408)).
With `Ivermectin` the IC50 was 1180 ± 980 nM (Bile acid receptor (NR1H4, Homo sapiens, UniProt Q96RI1); receptor activity, inhibitor; cells).
For `aspterric acid`, the inhibition was 8.83% (root length; Arabidopsis thaliana Col-0 seeds; 3.125 µg/mL, seed germination; relative to: water control).
For `nonaarginine`, the Kd was 926 ± 100 nM (PorA peptide pore; peptide binding, planar bilayer single-channel recording; pH 7.4, -10 mV, cis side, 150 mM KCl).
The MCHC of `HVLVMSATRR` is reported as 30.2 g/dL and 30.9 g/dL and 30.8 g/dL and 30.7 g/dL (peptide, C57BL/6J mice, male, blood; subcutaneous osmotic pump, 3 mg/kg/day peptide basis, 8 weeks).
`hexaarginine` has a Kd of 18600 ± 2000 nM (PorA peptide pore; peptide binding, planar bilayer single-channel recording; pH 7.4, -20 mV, cis side, 150 mM KCl).
The Kd of `TNP-AMP` is reported as > 100000 nM (Fructose-1,6-bisphosphatase 1 (Mus musculus, UniProt Q9QXD6, G27P); fluorescence titration; 1 µM enzyme, untagged; 25 °C, mutant G27P).
`asialo ovine submaxillary mucin` has a Kd of 0.3 ± 0.1 nM (Vicia villosa lectin; glycan microarray).
With `ACHPQFYMRCSG (disulfide 2-10 (inferred)) (disulfide)` the Kd was 23.3 ± 0.8 nM (Streptavidin E68V/S69T/V71R; binding, yeast surface display; 1 h, 4 °C, with: Strep-Tactin).
`thalidomide-FITC conjugate` gave a Kd of 253 ± 38 nM (Protein cereblon, thalidomide-binding domain (CRBN, Homo sapiens, UniProt Q96SW2); binding, TR-FRET; CRBN thalidomide-binding domain).
The Kd of `ACHYHPQFYMRCSG (disulfide 2-12 (inferred)) (disulfide)` is reported as 3.2 ± 0.1 nM (Streptavidin E68V/S69T/V71R; binding, yeast surface display; 1 h, 4 °C, with: Strep-Tactin).
For `insulin human`, the fold change was 1.11 (measured: UCP2 mRNA; uninfected mouse, brain; i.p., dose not given; relative to: PBS).

Excerpt of the above:
For `aspterric acid`, the inhibition was 8.83% (root length; Arabidopsis thaliana Col-0 seeds; 3.125 µg/mL, seed germination; relative to: water control).
